Results from different studies.

SMILES	test	test system	conditions	measurement	value
COc1cc(Nc2ncc3c(n2)-c2ccc(Cl)cc2C(c2c(F)cccc2OC)=NC3)ccc1C(=O)O	refers to: Hypotension, all grades	cancer patients, phase 1/2	oral, dose not given, added: pembrolizumab	patients with adverse event	4%
CNC(=O)c1ccc(-c2cnc3ncc(Cc4ccc5ncccc5c4)n3n2)cc1F	refers to: Dizziness	other cancer patients	oral, 600 mg twice daily, expansion cohort, grade 3-4	patients with adverse event	0%
CCO[C@H]1CCN(Cc2c(OC)cc(C)c3[nH]ccc23)[C@H](c2ccc(C(=O)O)cc2)C1	refers to: Flatulence	PNH patients, active haemolysis	oral, 100 mg twice daily, extension phase	patients with adverse event	0%
CCOc1c([C@H](C)n2nc(C)c3c(N)ncnc32)cc(Cl)c(F)c1[C@@H]1CNC(=O)C1	refers to: QTcF ≤450 ms	previously treated B-cell malignancy	oral, 10 mg once daily, overall population	patients	100%
Cc1cc(NC2CCN(C(=O)OC3CCN(C(=O)/C=C/CN(C)C)C3)CC2)n2ncc(C(C)C)c2n1 (centres unmarked)	Phase I dose escalation CTCAE v4.0, refers to: Vomiting	patients with advanced solid tumours	dose not given, TIW dosing any grade	patients with adverse event	18%
C[C@@H](Nc1cc(F)cc(F)c1)c1cc(C(=O)N(C)C)cc2c(=O)cc(N3CCOCC3)oc12	CTCAE v4, refers to: muscular weakness	patients with advanced solid tumours	oral, dose not given, phase I dose finding	patients with related SAE	1.6%
Cc1cc(-c2nnc(N)nc2-c2ccc(F)cc2)cc(Cl)n1	refers to: Colitis	IO-naive mCRPC patients, male	oral, dose not given, treatment-related, grade ≥3	patients with immune-mediated AE	0%
O=C(Nc1nc2cccc(-c3ccc(CN4CCS(=O)(=O)CC4)cc3)n2n1)C1CC1	–	rheumatoid arthritis patients	oral, 100 mg twice daily, 4 weeks, regardless of relatedness	patients with blood disorders	0%
COc1ccc([C@@H](O)c2cc(-c3ncnc4cc(N5CCOCC5)ccc34)c(F)cc2Cl)nn1	refers to: Proctalgia	locally advanced rectal cancer patients	dose not given, all dose groups, added: capecitabine plus radiotherapy	patients with TEAE	37%
FC(F)(F)c1ccc(CNc2ccc(Cc3c[nH]c4ncc(Cl)cc34)cn2)cn1	refers to: hair colour changes	non-TGCT solid tumour patients	oral, 1000 mg/day, all grades	patients with treatment-related adverse event	31%
NC(=O)N1c2ccccc2C=Cc2ccccc21	–	male patients	oral, dose not given, treatment-related adverse events	patients with Flatulence	0%

Excerpt of the above:
SMILES	test	test system	conditions	measurement	value
CCOc1c([C@H](C)n2nc(C)c3c(N)ncnc32)cc(Cl)c(F)c1[C@@H]1CNC(=O)C1	refers to: QTcF ≤450 ms	previously treated B-cell malignancy	oral, 10 mg once daily, overall population	patients	100%
Cc1cc(NC2CCN(C(=O)OC3CCN(C(=O)/C=C/CN(C)C)C3)CC2)n2ncc(C(C)C)c2n1 (centres unmarked)	Phase I dose escalation CTCAE v4.0, refers to: Vomiting	patients with advanced solid tumours	dose not given, TIW dosing any grade	patients with adverse event	18%
